Experimental data of several laboratories.
Lines come from different studies, so protocols differ. ± marks the error that the study gave.

Cl.O=C(c1cc(Cc2n[nH]c(=O)c3ccccc23)ccc1F)N1CC(CNC2CC2)C1 — tumour growth inhibition (athymic nude mouse, sample A ovarian PDX; oral, 50 mg/kg once daily, 63 days): 135%
COc1ccc(F)cc1C(=O)NCc1ccc(-c2nn([C@@H](C)C(F)(F)F)c(N)c2C(N)=O)cc1 — tumour growth inhibition (TMD8, mouse xenograft; oral, 30 mg/kg twice daily, day 14, 336 h): 101%
COCc1cc(C(=O)Nc2cc([C@H]3CC[C@@H](OC(=O)NC(C)C)C3)[nH]n2)n(C)n1 — tumour growth inhibition (MCF7 xenograft, NSG mouse; oral twice daily, high dose): 82%
O=C1CC[C@H](N2Cc3cc(N4CCN(CC5CCN(c6ccc([C@@H]7c8ccc(O)cc8CC[C@@H]7c7ccccc7)cc6)CC5)CC4)ccc3C2=O)C(=O)N1 — tumour growth inhibition (mouse MCF7 orthotopic xenograft; oral, 30 mg/kg once daily, 28 days): 120%
C=CC(=O)Nc1cc(Nc2nccc(Nc3cc(Cl)c(F)cc3C(C)(C)O)n2)c(OC)cc1N1CC[C@@H](N(C)C)C1 — tumour growth inhibition (NCI-H2073 parental, EGFR wild type, BALB/c nude mouse, NCI-H2073 xenograft; 25 mg/kg twice daily, 21 days): 91.6%
CCCCc1nc2cc(/C=C/C(=O)NO)ccc2n1CCN(CC)CC — tumour growth inhibition (mouse, MOLM-13 subcutaneous xenograft; 125 mg/kg every other day, day 7): 42%
C[C@@H]1COCCN1c1cc([C@]2(O)C[C@H]3CC[C@@H](C2)O3)c2cnn(-c3cc[nH]n3)c2n1 — tumour growth inhibition (SUM149PT xenograft, mouse; 15 mg/kg QD x3, day 42): 71.2 ± 2.4%
C[C@]12CC[C@H](n3ccnc3)CC1=CC[C@@H]1[C@@H]2CC[C@]2(C)C(n3cnc4ccccc43)=CC[C@@H]12.Cl.Cl — tumour growth inhibition (mouse CWR22Rv1 xenograft; oral, 20 mg/kg once daily, 16 days, 5 days per week): 153%

Repeated from above:
C=CC(=O)Nc1cc(Nc2nccc(Nc3cc(Cl)c(F)cc3C(C)(C)O)n2)c(OC)cc1N1CC[C@@H](N(C)C)C1 — tumour growth inhibition (NCI-H2073 parental, EGFR wild type, BALB/c nude mouse, NCI-H2073 xenograft; 25 mg/kg twice daily, 21 days): 91.6%
